# Assay results pooled from the literature.
# Protocols differ between the studies behind these lines. Numbers after ± are the reported error.
# UniProt F8G0P2, sequence (whole entry, unmodified, looked up): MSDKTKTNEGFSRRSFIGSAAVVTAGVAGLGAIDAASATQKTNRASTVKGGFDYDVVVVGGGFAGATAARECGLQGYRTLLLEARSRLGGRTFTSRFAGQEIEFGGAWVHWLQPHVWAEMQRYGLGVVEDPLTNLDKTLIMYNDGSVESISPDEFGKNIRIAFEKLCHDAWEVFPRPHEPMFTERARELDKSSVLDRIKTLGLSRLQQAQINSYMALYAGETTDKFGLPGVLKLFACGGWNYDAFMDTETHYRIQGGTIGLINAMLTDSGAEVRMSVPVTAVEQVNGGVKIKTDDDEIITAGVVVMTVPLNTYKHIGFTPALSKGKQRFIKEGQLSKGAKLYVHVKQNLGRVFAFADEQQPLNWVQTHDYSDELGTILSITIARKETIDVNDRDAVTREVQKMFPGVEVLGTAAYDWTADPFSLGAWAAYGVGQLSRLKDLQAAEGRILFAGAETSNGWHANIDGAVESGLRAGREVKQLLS
# UniProt P01317, sequence (whole entry, looked up): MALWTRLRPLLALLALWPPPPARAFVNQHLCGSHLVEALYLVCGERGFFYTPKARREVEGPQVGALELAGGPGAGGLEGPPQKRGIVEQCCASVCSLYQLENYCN
# UniProt O67572, sequence (whole entry, looked up): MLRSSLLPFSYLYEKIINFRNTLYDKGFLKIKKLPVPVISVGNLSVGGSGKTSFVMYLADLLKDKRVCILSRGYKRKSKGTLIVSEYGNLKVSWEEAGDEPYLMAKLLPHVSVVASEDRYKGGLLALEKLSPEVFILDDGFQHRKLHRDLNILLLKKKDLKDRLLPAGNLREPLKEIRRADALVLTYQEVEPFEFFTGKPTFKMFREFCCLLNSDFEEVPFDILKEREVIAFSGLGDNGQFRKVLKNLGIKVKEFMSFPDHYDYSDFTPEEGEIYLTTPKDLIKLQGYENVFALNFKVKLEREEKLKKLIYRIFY
Molecule,tested on,assay,setting,measurement,value
"enzyme (Aquifex aeolicus, UniProt O67572)",CCCCCCCCCCC[C@@H](O)CC(=O)N[C@H]1[C@H](OC[C@H]2O[C@H](OP(=O)(O)O)[C@H](NC(=O)C[C@H](O)CCCCCCCCCCC)[C@@H](OC(=O)C[C@H](O)CCCCCCCCCCC)[C@@H]2O)O[C@H](CO)[C@@H](O)[C@@H]1OC(=O)C[C@H](O)CCCCCCCCCCC,steady-state kinetics,"pH 8.5, 30 °C, apparent",Km,7 µM
"Cj1438c (Campylobacter jejuni, UniProt Q0P8H6)",Nc1ncnc2c1ncn2[C@@H]1O[C@H](COP(=O)(O)OP(=O)(O)OP(=O)(O)O)[C@@H](O)[C@H]1O,steady-state kinetics,"pH 8, 25 °C, apparent",Km,47 µM
insulin,"Insulin (INS, Bos taurus, UniProt P01317)",circular dichroism,300 min,α-helix content,21.8%
"nicA2 (Pseudomonas putida, UniProt F8G0P2)",CN1CCC[C@H]1c1cccnc1,steady-state kinetics,"pH 7.4, 22 °C",Km,0.114 µM
"orn (Vibrio cholerae, UniProt Q9KV17)",Nc1nc2c(ncn2[C@@H]2O[C@H](COP(=O)(O)O[C@H]3[C@@H](O)[C@H](n4cnc5c(=O)[nH]c(N)nc54)O[C@@H]3COP(=O)(O)O)[C@@H](O)[C@H]2O)c(=O)[nH]1,steady-state kinetics,"pH 8, 37 °C",Km,41.2 µM
"protein (Micromonospora echinospora, UniProt Q8KND2)",C[S+](CC[C@H](N)C(=O)O)C[C@H]1O[C@@H](n2cnc3c(N)ncnc32)[C@H](O)[C@@H]1O,steady-state kinetics,"pH 8, 35 °C",Km,350 µM
dmhA Y158F (Campylobacter jejuni),Nc1nc2c(ncn2[C@@H]2O[C@H](COP(=O)(O)OP(=O)(O)O[C@H]3O[C@H]([C@H](O)CO)[C@@H](O)[C@H](O)[C@@H]3O)[C@@H](O)[C@H]2O)c(=O)[nH]1,steady-state kinetics,"pH 7.5, 30 °C",Km,210 µM
hdhb E18D/G39D/R40A/R41A/T17A (Clostridium sardiniense),NC(=O)c1ccc[n+]([C@@H]2O[C@H](COP(=O)(O)OP(=O)(O)OC[C@H]3O[C@@H](n4cnc5c(N)ncnc54)[C@H](O)[C@@H]3O)[C@@H](O)[C@H]2O)c1,steady-state kinetics,"pH 8, 25 °C, cofactor varied",Km,4640 µM
nicA2 T250V/T381V (Pseudomonas putida),CN1CCC[C@H]1c1cccnc1,steady-state kinetics,"pH 7.4, 22 °C",Km,2.52 µM
"Aβ42, N-terminal Atto 488",itself,single-molecule fluorescence burst analysis,"10 µM, 24 h, pH 7.5, 37 °C, labeled peptide alone, high DOL, after fibrillation",mean oligomer size,"2.78 N¯phot,mon"
hdhb E18D/G39D/R40L/R41N/T17A (Clostridium sardiniense),NC(=O)c1ccc[n+]([C@@H]2O[C@H](COP(=O)(O)OP(=O)(O)OC[C@H]3O[C@@H](n4cnc5c(N)ncnc54)[C@H](O)[C@@H]3O)[C@@H](O)[C@H]2O)c1,steady-state kinetics,"pH 8, 25 °C, cofactor varied",Km,330 µM
dmhA S133T (Campylobacter jejuni),Nc1nc2c(ncn2[C@@H]2O[C@H](COP(=O)(O)OP(=O)(O)O[C@H]3O[C@H]([C@H](O)CO)[C@@H](O)[C@H](O)[C@@H]3O)[C@@H](O)[C@H]2O)c(=O)[nH]1,steady-state kinetics,"pH 7.5, 30 °C",Km,50 µM
"Aβ40, N-terminal Atto 488",itself,single-molecule fluorescence burst analysis,"10 µM, pH 7.5, 37 °C, early aggregation, labeled peptide alone, before growth phase",mean oligomer size,"2.55 ± 0.03 N¯phot,mon"
